Published values from different studies.
Lines come from different studies, so protocols differ. Numbers after ± are the reported error.
Target: Muscarinic acetylcholine receptor M3 (CHRM3, Homo sapiens, UniProt P20309)
Sequence of UniProt P20309 (whole entry, looked up): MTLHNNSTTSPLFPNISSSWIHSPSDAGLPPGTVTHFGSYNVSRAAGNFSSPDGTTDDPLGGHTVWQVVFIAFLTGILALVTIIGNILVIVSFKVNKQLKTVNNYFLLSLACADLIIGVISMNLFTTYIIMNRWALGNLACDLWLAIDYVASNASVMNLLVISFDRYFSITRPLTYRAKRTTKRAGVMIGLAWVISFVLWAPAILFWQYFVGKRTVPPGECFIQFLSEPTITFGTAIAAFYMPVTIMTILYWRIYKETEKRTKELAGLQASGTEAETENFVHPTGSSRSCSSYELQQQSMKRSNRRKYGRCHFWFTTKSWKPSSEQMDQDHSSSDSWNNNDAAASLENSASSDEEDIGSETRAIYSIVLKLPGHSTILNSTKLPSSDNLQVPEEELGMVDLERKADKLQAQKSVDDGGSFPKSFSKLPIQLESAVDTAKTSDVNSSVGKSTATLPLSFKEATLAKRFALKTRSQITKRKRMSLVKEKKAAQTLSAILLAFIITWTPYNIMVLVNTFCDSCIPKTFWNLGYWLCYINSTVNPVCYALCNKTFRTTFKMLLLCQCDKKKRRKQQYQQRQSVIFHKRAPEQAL

For `COc1ccc(S(=O)(=O)N2CCc3ccccc3C2)cc1N1CCN(C(=O)c2ccc(F)cc2C(F)(F)F)CC1`, the inhibition was 10.9% (ligand displacement, radioligand; 1 µM).
`O=C(CCNC(=O)CNC(=O)CC(c1ccccc1)(c1ccccc1)c1ccccc1)NC[C@@H]1CCCN(Cc2ccc(F)cc2)C1` has a selectivity ratio of > 45 ([3H]N-methylscopolamine competition; baseline: M4 over M3 Ki).
`COc1ncc2nc(C)n(Cc3ncc(S(N)(=O)=O)cc3F)c2c1-c1ccccc1` gave an inhibition of -4.83% (antagonist, cell-based; 10 µM).
With `C[Si](C)(C)C[C@H](CN)CC(=O)O` the inhibition was 10% (ligand displacement, radioligand; 250 µM).
The inhibition of `O=C1c2sc(-c3ccc(N4CCC(F)C4)nc3F)nc2CCN1c1cccnc1` (centres unmarked) is reported as -6% (ligand displacement, radioligand; 1 µM).
`C=CCn1c(=O)c2ccccc2n2c(SCC(=O)Nc3ccc(NC(C)=O)cc3)nnc12` gave a maximal stimulation of < 110% (agonist; 16 h, together with: [3H]NMS).
`CC(C)Cn1c(SCC(=O)N2CCc3ccccc3C2)nc2cc(Cl)ccc2c1=O` has an inhibition of 19% (ligand displacement, radioligand; 10 µM).
For `CCCCCCOc1ccc(C(=O)OCC[N+]2(C)CC=CCC2)cc1` (centres unmarked), the Emax was 1.24 ± 0.08 fold (membranes; 100 µM, 15 h, together with: carbachol; baseline: control).
`C=CCn1c(=O)c2ccccc2n2c(SCC(=O)NCc3ccc(NC(C)=O)cc3)nnc12` gave a maximal stimulation of 117 ± 7% (agonist; 16 h, together with: [3H]NMS).
`Cc1cccc(O[C@H]2CCC[C@@H](C(C)CNCc3ccncc3)C2)c1` (relative stereo) has an inhibition of 72% (ligand displacement; 10 µM).
`C=CCn1c(=O)c2ccccc2n2c(SC(C(=O)OCC)c3ccccc3)nnc12` (centres unmarked) gave a maximal stimulation of 113 ± 1% (agonist; 16 h, together with: [3H]NMS).
`CCCCCCOc1ccc(C(=O)OCCN2CC=CCC2)cc1` gave a basal binding of 0.91 ± 0.02 fold (membranes; 100 µM, 15 h, no carbachol; baseline: control).
`Cc1[nH]nc2c1N=C(c1ccccc1Cl)c1cnc(N3CCOCC3)cc1N2` gave an inhibition of 9% (cell-free assay; 10 µM).
`CCCCOc1ccc(C(=O)OCC[N+]2(C)CC=CCC2)cc1` (centres unmarked) gave an Emax of 1.34 ± 0.07 fold (membranes; 100 µM, 15 h, together with: carbachol; baseline: control).
The inhibition of `CO[C@@H](C)c1c(NC(=O)Nc2cnc(-n3nccn3)c(C(F)(F)F)c2)cnc2sc(C)nc12` is reported as 0.7% (ligand displacement, radioligand; 10 µM).
With `CCCCOc1ccc(C(=O)OCCN2CC=CCC2)cc1` the Emax was 1.37 ± 0.08 fold (membranes; 1 µM, 15 h, together with: carbachol; baseline: control).
The inhibition of `CCC(=O)N(C)c1ccc(Cl)c(Cl)c1` is reported as < 10% (ligand displacement, radioligand; 10 µM).
